Published values gathered from unrelated publications.
Parts stem from different laboratories: compare values within a part only.

Sample 1 — method: RNA Bind-n-Seq; form: RNA; medium: in vitro; concentration: 200 nM; notes: whole 134-nt RNA, ends assumed; added: 150 mM LiCl; baseline: input library; reading: higher = stronger binding; all molecules: 7-deaza-guanosine replaces G
Target: Ras GTPase-activating protein-binding protein 1, full length (G3BP1, Homo sapiens, UniProt Q13283)
Chain of UniProt Q13283 (whole entry, looked up): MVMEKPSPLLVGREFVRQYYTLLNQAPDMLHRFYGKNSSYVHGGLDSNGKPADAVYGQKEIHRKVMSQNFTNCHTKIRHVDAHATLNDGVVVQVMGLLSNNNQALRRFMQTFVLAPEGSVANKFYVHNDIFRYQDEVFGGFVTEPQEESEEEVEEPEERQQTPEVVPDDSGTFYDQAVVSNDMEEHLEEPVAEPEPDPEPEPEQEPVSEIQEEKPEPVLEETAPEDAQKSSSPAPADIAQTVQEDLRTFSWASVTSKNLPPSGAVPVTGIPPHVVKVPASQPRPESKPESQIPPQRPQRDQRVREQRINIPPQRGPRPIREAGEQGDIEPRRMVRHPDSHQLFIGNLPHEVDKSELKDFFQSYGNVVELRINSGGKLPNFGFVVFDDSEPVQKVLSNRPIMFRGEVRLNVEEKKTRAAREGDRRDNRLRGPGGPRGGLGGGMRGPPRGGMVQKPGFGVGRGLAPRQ
Constant ends, left off below: GGGAGUUCUACAGUCCGACGAUC … UGGAAUUCUCGGGUGUCAAGG
| Strand | log2 enrichment |
| --- | --- |
| UGGCCUUGGUGGCAUGCGGGGAGGAAGAGGUGGCCUCAUGGAUCGUGGUGGUCCCGGUGGAAUGUUCAGAGGUGGCCGUGGUGGAGACAG | 0.562 |
| UUCCGCCUCUUUCCGGAGUACAAGAACAACAAACUUUUCCUGACCGGGGAGAGCUAUGCUGGCAUCUACAUCCCCACCCUGGCCGUGCUG | 1.21 |
| AAGUCCUGUGCUACACAUCGUAUGUACCGAAUCGGGGCCCGGGGCCCGGGGCCCGGGAAAGUAUUAUGUUACGCCGUUCGGAUCUGCACU | -0.259 |
| CAAGUCCUGUGCUACACAUCGUAUGUACCGAAUCGGGAAAAAGGGAAAGGGAGGGAAAGUAUUAUGUUACGCCGUUCGGAUCUGCACUUC | -0.112 |
| CUCAAGUCCUGUGCUACACAUCGUAUGUACCGAAUCGGGGUUGGUUGGGUUGGAAAGUAUUAUGUUACGCCGUUCGGAUCUGCACUUCCA | -0.188 |
| GUCCUGUGCUACACAUCGUAUGUACCGAAUCGGGUUUGGGAAAAAGGGUUUUUUUGGGAAAGUAUUAUGUUACGCCGUUCGGAUCUGCAC | -1.16 |
| UCCUGUGCUACACAUCGUAUGUACCGAAUCGGGGUUUUUUGGUUUUUUGGGUUUUUUGGAAAGUAUUAUGUUACGCCGUUCGGAUCUGCA | 0.266 |
| UGGCCCUGGUGGCAUGCGGGGAGGAAGAGGUGGCCUCAUGGAUCGUGGUGGUCCCGGUGGAAUGUUCAGAGGUGGCCGUGGUGGAGCCAG | 0.111 |
| UUAGGUGGCUCCAGGAUGUAUUUAACGUGCCCUUGGUCAUCCAGAUGACGGAUGACGAGAAGUAUCUGUGGAAGGACCUGACCCUGGACC | -0.718 |
| AGUCCUGUGCUACACAUCGUAUGUACCGAAUCAAAUUUAAAUUUUUAAAUUUUUAAAAAAGUAUUAUGUUACGCCGUUCGGAUCUGCACU | -2.97 |
| UCAAGUCCUGUGCUACACAUCGUAUGUACCGAAUCGGAAAAAAAGGAAAGGUGGAAAGUAUUAUGUUACGCCGUUCGGAUCUGCACUUCC | -1.12 |

Sample 2 — method: protein-binding microarray; form: double-stranded DNA, one strand shown; medium: in vitro; concentration: 250 nM; notes: 60-bp whole probe; added: salmon DNA 0.4 mg/ml; baseline: random background probes; reading: higher = stronger binding; constant ends, left off below: GCCTAGCAC … GTCTTGATTCGCTTGACGCTGCTG
Target: Interferon regulatory factor 7, full length, phosphomimetic (IRF7, Homo sapiens, UniProt Q92985, residues 1-503, S101K/S471D/S472D/S475D/S476D/S477D/S483D/S484D/S487D)
Chain of UniProt Q92985 (whole entry, unmodified, looked up): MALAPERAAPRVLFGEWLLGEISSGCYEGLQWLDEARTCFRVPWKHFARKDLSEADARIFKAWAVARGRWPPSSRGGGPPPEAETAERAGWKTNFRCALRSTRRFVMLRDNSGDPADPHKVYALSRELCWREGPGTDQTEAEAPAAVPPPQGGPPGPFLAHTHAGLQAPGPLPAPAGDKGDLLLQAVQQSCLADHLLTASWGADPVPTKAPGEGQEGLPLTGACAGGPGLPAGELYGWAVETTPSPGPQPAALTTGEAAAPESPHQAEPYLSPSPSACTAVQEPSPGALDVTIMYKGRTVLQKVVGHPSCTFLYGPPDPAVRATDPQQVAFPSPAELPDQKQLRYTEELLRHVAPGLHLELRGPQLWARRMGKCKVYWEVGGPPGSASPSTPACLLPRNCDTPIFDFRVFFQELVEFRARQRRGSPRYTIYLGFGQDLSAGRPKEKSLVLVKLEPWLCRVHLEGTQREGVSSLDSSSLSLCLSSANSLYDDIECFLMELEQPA
| Strand | log fluorescence [z-score] |
| --- | --- |
| TTCGGACTGGACACTGGGTTAGTGCTA | -0.704 |
| TTAGGTATTGACTATCGGTTAGTGCTA | -0.391 |
| ATAGAACTGAGTATCGATTAGTGCTAG | 0.729 |
| GACGGTTTCCTTTTCCTGAGGTGCTAG | 6.48 |
| TTAGGTCTCCCTTTCCTTTAGTGCTAG | 0.968 |
| GACGATATCAGATTCGAGACGTGCTAG | 0.563 |
| TCAAGTTCATGTTTTGGACTGTGCTAG | 0.448 |
| TTAGGTCTCCTTATCCGTTAGTGCTAG | 0.867 |
| TTGTTTTTTGGTTTCTGGTTGTGCTAG | 6.26 |
| TAGTTTCTAAAACTCTTTATGTGCTAG | 2.74 |
| TTAGGTCTCCTTGTCCTTTAGTGCTAG | -0.43 |
| TTAGGTTTCGGGTATCGGTTGGTGCTA | 7.08 |
| TCTGACCCCCTGCGCGGCAGGTGCTAG | -0.417 |
| GACGGTTTCGACCCTGGGGACGTGCTA | 3.55 |
| TAAGGAGGCAGGGATGCTCCGTGCTAG | -0.638 |
| ATATACCTGAATATCTTCAGGTGCTAG | 0.49 |
| TACGAACTGAGTATCGAGACGTGCTAG | 0.021 |
| TCAAAAATCATTTTCTCACTGTGCTAG | 0.81 |
| GACGGTCTCGGGTTTCGGGACGTGCTA | 4.06 |
| TCAATTAGAATTTTCATACTGTGCTAG | 0.401 |
| TCATGTCTGGATGTGCCACTGTGCTAG | -0.0605 |
| GATGGACTGGGTTTCGGGACGTGCTAG | 1.78 |
| TTAGGACTGTGACTGGGTTAGTGCTAG | -0.43 |
| TCAGGTCTCCTACTGCTTTAGTGCTAG | -0.0701 |
| TCAGTTATCCATCTCAAACTGTGCTAG | 0.463 |

Sample 3 — method: universal PBM; form: double-stranded DNA, one strand shown; medium: in vitro; concentration: not given; reading: higher = stronger binding
Target: Sal-like protein 4, full length isoform B (SALL4, Homo sapiens, UniProt Q9UJQ4-2, residues 1-616)
Notes: 8-mer, flanks averaged, mean of replicates
| Strand | E-score |
| --- | --- |
| AGTGTTGA | 0.0383 |
| ATAAAATG | 0.35 |
| ACCTAGTG | 0.0284 |
| AACGTTTG | 0.115 |
| ATAAGTAG | 0.164 |
| CCCCTGAC | -0.212 |
| TCATAGGA | 0.256 |
| GCGTTTTA | 0.0308 |
| CGTGAGAC | -0.0411 |
| AAAAGGGG | -0.108 |
| AAATACGG | 0.165 |
| CAGTATCG | -0.0229 |
| CCCTAAAC | -0.043 |
| ACCTGCCC | -0.331 |
| ATCAGAAA | 0.124 |
| CAGGGGTC | -0.241 |
| GCTATGGA | 0.0915 |
| AGTTTGAT | 0.0519 |
| CCTAAATA | 0.194 |
| CAATTAAA | 0.219 |
| AATCGCAG | 0.0266 |
| GAAAGTTA | 0.148 |
| TTCGACAA | 0.221 |
| ACCCATGC | -0.029 |
| CGATAGCG | -0.0827 |

Sample 4 — method: RNA Bind-n-Seq; form: RNA; medium: in vitro; concentration: not given; baseline: input RNA pool; reading: higher = stronger binding
Target: RING finger protein unkempt homolog, zinc fingers 1-6, GST-SBP tag (UNK, Homo sapiens, UniProt Q9C0B0, residues 30-357)
Chain of UniProt Q9C0B0 (30-357, looked up): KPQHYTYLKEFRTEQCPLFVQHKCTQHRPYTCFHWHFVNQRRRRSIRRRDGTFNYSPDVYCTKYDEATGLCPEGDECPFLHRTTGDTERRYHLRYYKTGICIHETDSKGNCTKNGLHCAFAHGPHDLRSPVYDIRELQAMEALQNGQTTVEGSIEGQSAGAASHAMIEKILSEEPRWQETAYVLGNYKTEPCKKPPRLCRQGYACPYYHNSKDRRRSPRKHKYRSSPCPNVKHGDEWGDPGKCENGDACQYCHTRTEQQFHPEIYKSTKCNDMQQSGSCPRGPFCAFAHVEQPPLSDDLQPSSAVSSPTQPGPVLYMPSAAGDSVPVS
Notes: RNA with constant flanks, human and mouse sites, ends assumed
Constant ends, left off below: GGGAGUUCUACAGUCCGACGAUC … CAACAGAGGAUUGAGCAUCA
| Strand | bound/input enrichment [ratio] |
| --- | --- |
| CCGUUCAUUCACUGCAGGACCAGGCACGAAAGUUAAAACAAAAUGAAGAUUUUUUCUGAAUCUCAUAAAACAGUGUUUGUUGUGGAUCACUGCCCAUACAUGGCAGAAUCCUGUAGGCAG | 0.249 |
| UCCUCUAAAGCAACUCCUGCAGAGAUGGAUUUGGCCCACAACAGCCAAAGCAUGCACGCCUCUUCAGCUUCCAAAUCUGUGCUGGAGGUGACUCAGAAAGCAACCCCAAAUCCAAGUCUU | 0.21 |
| ACCACUGGUGGAAUUGAUGAUAUGUGUCUGAAGUAUUUUGUGGAGGCUGGUGCUAUGGCAGUUAGAAGAGUUUUAAAAAGGGACCUUAAACGCAUUGCCAAAGCUUCUGGAGCAACUAUU | 0.291 |
| UGUGGCUUUGGUGGGGUCUUAAGUUGUGGUCUGACACACACUGCUGUGGUUCCCCUGGAUUUAGUGAAAUGCCGUAUGCAGGUGGACCCCCAAAAGUACAAGGGCAUAUUUAACGGAUUC | 0.203 |
| CAACAAUUAGAAGCACCUUAUAACAGUGAUACUGUGCUUGUCCACCGAGUUCACAGUUAUUUAGAGCGUCAUGGUCUUAUCAACUUCGGCAUCUAUAAGAGGAUAAAACCCCUACCAACU | 0.269 |
| GCCCGCGUGCGCCAUCCCCUCAGCUAGCAGGUGUGAGAGGCUUUCUACCCGCGGUCUCCACACAGCUCAACAUCUUGCCGCCUCCUCCGAGCCUGAAGCUACCGUGGACUCUGCUGUGGC | 0.332 |
| AGUUUUUCUGCUUCCAAAAUAUUUAUUUCUGCAUUAGCCAUGGAAGGACAGCAACUUUUAGUAGCAUAUCCUUGCGCUUUGUUAUAUGGAGUCUUUGCCCUGAUUUCCGUCUUUUGAAAA | 0.296 |
| UCUGUGUAUGCACACUCCACCCCAGAGUGUUUUCAGUGUGCCAGAGAAGCAGCUGUAGCGUUAGGACAUGAGCCUGUCUAGUGUUUCCUAGGAAAGGGAUAGUUUUCUGUUGGUAUAGCA | 3.22 |
| AAGAUUCACCAAGAAACCUUUGGCAAGAGUGGAUGCCGUCGCAUCGUUCCUGGCCAGUUCUUAGCUGUGGAUCCCAAAGGGCGAGCCGUUAUGAUUAGUGCCAUUGAGAAACAGAAAUUG | 0.374 |
| UGACUGAAAUAUUAAUAUUUAAAAUACUUCAUUCCUUAAUUCUCCCUCAAUUGCUUUACCCAUAGCCUAUUCAAUUCCUUUGUUUGGCGAACUCUGCAAAAUGUGUUACCCACUACUGAG | 1.7 |
| CACACAAGUAUGAAGUUUCUUUCAGGUGUAAAUAAUGAAAAAUAAAUGCCUCAUAAAUGAUAGUACAAUGUAACUAUCAAAGUUUUAUAAUUCAUUAUGAGUUAACCAUUUUAAUGUUUC | 0.231 |

Excerpt of the above (sample 3):
| Strand | E-score |
| --- | --- |
| ACCTAGTG | 0.0284 |
| GCGTTTTA | 0.0308 |
| AAATACGG | 0.165 |
| ACCCATGC | -0.029 |
| ATAAGTAG | 0.164 |
| ATAAAATG | 0.35 |
| AATCGCAG | 0.0266 |
| CGTGAGAC | -0.0411 |
| GCTATGGA | 0.0915 |
